Results from different studies.
Lines come from different studies, so protocols differ. ± gives the spread as reported.

Compound	organism	assay	system	setting	EC50
Cc1ncnc(C)c1-c1ccc(C(=O)N2CC[C@H](C(=O)Nc3cc(F)c(F)c(F)c3)C2)[nH]1	hepatitis B virus	viral replication, qPCR, refers to: intracellular HBV DNA	HepG2.2.15	–	35 nM
CCCCCCCCC1=C(CCCCCCCC(=O)O)C1	Toxoplasma gondii	parasite-induced cytopathic effect	Vero, RH	24 h	36200 ± 5100 nM
COC(=O)/C=C/c1ccc(OCCNS(=O)(=O)c2ccccc2F)c(OC)c1	tobacco mosaic virus	inactivation activity, half-leaf method	–	–	266 ± 8.7 µg/mL
O=C(N[C@@H](CC1CCCCC1)C(=O)N[C@@H](C[C@H]1CCNC1=O)C(=O)C(=O)NC1CC1)OCc1ccccc1	Enterovirus D68	viral replication	WI-38	37 °C	40 ± 10 nM
Cc1ccc(NC(=O)N2CCCN3CCC(c4ccc(C#CC5CCCC5O)cc4)C3C2)cc1 (centres unmarked)	Toxoplasma gondii	–	HFF, RH (type I)	–	330 nM
O=c1ccn(CCCCCOc2ccc(Br)cc2)c(=O)n1Cc1ccccc1	human betaherpesvirus 5	plaque formation	HEL, Davis	–	15300 nM
COc1ccc(NC(=O)N2CCCN3CCC(c4ccc(C#CC5CCCC5)cc4)C3C2)cc1 (centres unmarked)	Toxoplasma gondii	–	HFF, RH (type I)	–	940 nM
CC(C)C[C@H](NC(=O)OCc1cccc(Cl)c1)C(=O)N[C@H](C=O)C[C@H]1CCNC1=O	human rhinovirus 51	viral replication	WI-38	37 °C	400 ± 140 nM
Cc1ccc(NC(=O)N2CCCN3CCC(c4ccc(C#CC5(O)CCCCC5)cc4)C3C2)cc1 (centres unmarked)	Toxoplasma gondii	–	HFF, RH (type I)	–	250 nM
CCOC(=O)/C=C/c1ccc(OCCNS(=O)(=O)c2ccc(F)cc2)c(OC)c1	tobacco mosaic virus	inactivation activity, half-leaf method	–	–	498.9 ± 4 µg/mL
COc1ccc(NC(=O)N2CCCN3CCC(c4ccc(C#Cc5ccccc5)cc4)C3C2)cc1 (centres unmarked)	Toxoplasma gondii	parasite growth, luciferase reporter	HFF, RH type I	72 h	270 nM
CCCCCCCCC1=C(CCCCCCCC(=O)OC)C1	Toxoplasma gondii	parasite-induced cytopathic effect	Vero, RH	24 h	306000 ± 18800 nM
CC(C)C[C@H](NC(=O)OCc1cccc(Cl)c1)C(=O)N[C@@H](C[C@H]1CCNC1=O)C(=O)C(=O)NC1CC1	human rhinovirus 1B	viral replication	WI-38	37 °C	160 ± 80 nM
O=c1ccn(CCCCCOc2ccc(Br)cc2)c(=O)n1Cc1c2ccccc2cc2ccccc12	human betaherpesvirus 5	plaque formation	HEL, Davis	–	> 4000 nM
O=C[C@H](C[C@H]1CCNC1=O)NC(=O)[C@H](CC1CCCCC1)NC(=O)OCc1cccc(Cl)c1	human rhinovirus 1B	viral replication	WI-38	37 °C	700 ± 140 nM
CCCCOC(=O)/C=C/c1ccc(OCCNS(=O)(=O)c2ccc(C)cc2)c(OC)c1	tobacco mosaic virus	inactivation activity, half-leaf method	–	–	542 ± 8.9 µg/mL
O=C[C@H](C[C@H]1CCNC1=O)NC(=O)[C@H](CC1CCCCC1)NC(=O)OCc1ccccc1	human rhinovirus 1B	viral replication	WI-38	37 °C	650 ± 210 nM
COC(=O)/C=C/c1ccc(OCCNS(=O)(=O)c2ccc(NC(C)=O)cc2)c(OC)c1	tobacco mosaic virus	inactivation activity, half-leaf method	–	–	84.8 ± 3.2 µg/mL
O=C(N[C@@H](Cc1ccccc1)C(=O)N[C@@H](C[C@H]1CCNC1=O)C(=O)C(=O)NC1CC1)OCc1ccccc1	human rhinovirus 1B	viral replication	WI-38	37 °C	190 ± 160 nM
CCCCCCCCC1=C(CCCCCCC(=O)OC)C1	Toxoplasma gondii	parasite-induced cytopathic effect	Vero, RH	24 h	357000 ± 14100 nM

Repeated from above:
Compound	organism	assay	system	setting	EC50
COc1ccc(NC(=O)N2CCCN3CCC(c4ccc(C#Cc5ccccc5)cc4)C3C2)cc1 (centres unmarked)	Toxoplasma gondii	parasite growth, luciferase reporter	HFF, RH type I	72 h	270 nM
COC(=O)/C=C/c1ccc(OCCNS(=O)(=O)c2ccc(NC(C)=O)cc2)c(OC)c1	tobacco mosaic virus	inactivation activity, half-leaf method	–	–	84.8 ± 3.2 µg/mL
O=c1ccn(CCCCCOc2ccc(Br)cc2)c(=O)n1Cc1ccccc1	human betaherpesvirus 5	plaque formation	HEL, Davis	–	15300 nM
